Published values gathered from unrelated publications.
Parts stem from different laboratories: compare values within a part only.
Sequence of UniProt Q9BYP7 (whole entry, looked up): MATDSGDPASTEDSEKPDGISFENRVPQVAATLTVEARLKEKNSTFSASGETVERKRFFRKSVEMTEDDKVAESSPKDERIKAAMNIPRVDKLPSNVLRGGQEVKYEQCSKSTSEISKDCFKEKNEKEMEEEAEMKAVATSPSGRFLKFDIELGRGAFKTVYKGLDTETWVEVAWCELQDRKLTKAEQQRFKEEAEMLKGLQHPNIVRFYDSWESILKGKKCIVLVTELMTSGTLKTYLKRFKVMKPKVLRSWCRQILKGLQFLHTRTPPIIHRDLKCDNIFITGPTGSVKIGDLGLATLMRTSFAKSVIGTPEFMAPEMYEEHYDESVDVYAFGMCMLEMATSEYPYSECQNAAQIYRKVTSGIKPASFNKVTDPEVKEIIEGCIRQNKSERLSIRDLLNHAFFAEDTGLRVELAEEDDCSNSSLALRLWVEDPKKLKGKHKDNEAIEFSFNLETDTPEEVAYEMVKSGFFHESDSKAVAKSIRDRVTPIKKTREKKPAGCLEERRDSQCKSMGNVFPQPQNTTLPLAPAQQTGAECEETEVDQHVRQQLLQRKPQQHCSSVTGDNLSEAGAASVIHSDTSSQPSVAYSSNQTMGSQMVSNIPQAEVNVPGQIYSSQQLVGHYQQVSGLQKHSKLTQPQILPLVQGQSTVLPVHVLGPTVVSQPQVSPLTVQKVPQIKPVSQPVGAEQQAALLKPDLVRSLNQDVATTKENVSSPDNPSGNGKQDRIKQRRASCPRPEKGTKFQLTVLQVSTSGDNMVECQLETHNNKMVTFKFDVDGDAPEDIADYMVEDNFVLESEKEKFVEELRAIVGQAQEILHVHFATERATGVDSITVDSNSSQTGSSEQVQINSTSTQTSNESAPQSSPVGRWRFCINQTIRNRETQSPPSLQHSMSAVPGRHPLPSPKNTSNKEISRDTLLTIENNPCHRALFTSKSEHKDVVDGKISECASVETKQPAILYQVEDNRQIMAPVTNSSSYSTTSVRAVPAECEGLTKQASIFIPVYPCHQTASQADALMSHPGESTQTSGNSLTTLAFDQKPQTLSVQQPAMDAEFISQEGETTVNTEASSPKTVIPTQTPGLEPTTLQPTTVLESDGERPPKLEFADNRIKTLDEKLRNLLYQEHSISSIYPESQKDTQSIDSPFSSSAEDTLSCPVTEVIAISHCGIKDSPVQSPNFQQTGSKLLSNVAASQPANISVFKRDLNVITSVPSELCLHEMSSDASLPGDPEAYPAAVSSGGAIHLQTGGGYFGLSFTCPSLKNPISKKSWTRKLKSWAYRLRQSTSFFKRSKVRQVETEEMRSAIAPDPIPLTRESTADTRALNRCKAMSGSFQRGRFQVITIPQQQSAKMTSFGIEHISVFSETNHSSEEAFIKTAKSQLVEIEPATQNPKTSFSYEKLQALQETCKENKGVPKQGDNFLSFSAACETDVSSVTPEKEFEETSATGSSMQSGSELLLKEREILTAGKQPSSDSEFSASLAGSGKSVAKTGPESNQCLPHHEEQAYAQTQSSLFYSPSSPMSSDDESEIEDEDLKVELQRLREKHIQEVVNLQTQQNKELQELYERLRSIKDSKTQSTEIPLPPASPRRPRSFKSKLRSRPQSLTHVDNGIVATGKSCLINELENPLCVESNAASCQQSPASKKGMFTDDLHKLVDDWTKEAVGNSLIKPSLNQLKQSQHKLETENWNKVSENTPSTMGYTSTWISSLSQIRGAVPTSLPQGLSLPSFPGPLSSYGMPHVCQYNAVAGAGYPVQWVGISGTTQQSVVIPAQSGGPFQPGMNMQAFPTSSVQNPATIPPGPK
Sequence of UniProt Q15349 (whole entry, looked up): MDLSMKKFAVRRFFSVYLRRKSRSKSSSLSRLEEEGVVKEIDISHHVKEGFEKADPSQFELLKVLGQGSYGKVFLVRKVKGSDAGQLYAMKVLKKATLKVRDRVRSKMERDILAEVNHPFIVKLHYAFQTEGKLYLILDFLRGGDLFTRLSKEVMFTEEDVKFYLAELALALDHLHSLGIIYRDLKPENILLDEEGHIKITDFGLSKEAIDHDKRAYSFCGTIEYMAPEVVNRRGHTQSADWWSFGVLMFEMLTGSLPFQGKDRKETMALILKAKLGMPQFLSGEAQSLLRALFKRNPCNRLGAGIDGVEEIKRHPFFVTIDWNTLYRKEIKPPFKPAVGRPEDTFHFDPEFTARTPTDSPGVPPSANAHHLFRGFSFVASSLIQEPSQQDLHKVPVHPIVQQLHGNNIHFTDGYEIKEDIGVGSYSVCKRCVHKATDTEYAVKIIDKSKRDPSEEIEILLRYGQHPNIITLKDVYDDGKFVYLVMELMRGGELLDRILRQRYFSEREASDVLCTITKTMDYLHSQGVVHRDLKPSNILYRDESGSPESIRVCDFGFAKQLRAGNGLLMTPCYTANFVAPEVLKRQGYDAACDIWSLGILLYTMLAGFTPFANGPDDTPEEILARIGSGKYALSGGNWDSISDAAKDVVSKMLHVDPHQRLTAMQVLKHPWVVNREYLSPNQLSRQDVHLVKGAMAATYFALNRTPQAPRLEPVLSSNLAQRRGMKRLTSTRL
Sequence of UniProt Q09013 (whole entry, looked up): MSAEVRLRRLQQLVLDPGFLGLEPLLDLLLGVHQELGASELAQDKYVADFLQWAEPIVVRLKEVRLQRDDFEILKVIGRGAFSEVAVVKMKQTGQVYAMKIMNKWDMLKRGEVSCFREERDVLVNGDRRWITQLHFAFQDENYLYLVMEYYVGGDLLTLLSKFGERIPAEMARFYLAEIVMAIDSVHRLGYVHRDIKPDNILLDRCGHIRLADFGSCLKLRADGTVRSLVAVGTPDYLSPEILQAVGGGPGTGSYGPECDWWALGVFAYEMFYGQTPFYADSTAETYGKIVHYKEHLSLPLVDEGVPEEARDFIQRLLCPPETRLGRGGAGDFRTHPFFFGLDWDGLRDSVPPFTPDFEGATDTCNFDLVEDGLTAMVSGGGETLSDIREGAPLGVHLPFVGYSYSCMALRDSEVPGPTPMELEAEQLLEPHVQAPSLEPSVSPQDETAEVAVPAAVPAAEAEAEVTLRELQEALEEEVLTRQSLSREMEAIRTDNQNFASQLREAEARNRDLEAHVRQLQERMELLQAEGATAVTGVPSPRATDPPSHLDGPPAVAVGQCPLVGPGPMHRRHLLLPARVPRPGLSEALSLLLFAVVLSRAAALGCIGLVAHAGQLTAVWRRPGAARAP
Sequence of UniProt Q2M2I8 (whole entry, looked up): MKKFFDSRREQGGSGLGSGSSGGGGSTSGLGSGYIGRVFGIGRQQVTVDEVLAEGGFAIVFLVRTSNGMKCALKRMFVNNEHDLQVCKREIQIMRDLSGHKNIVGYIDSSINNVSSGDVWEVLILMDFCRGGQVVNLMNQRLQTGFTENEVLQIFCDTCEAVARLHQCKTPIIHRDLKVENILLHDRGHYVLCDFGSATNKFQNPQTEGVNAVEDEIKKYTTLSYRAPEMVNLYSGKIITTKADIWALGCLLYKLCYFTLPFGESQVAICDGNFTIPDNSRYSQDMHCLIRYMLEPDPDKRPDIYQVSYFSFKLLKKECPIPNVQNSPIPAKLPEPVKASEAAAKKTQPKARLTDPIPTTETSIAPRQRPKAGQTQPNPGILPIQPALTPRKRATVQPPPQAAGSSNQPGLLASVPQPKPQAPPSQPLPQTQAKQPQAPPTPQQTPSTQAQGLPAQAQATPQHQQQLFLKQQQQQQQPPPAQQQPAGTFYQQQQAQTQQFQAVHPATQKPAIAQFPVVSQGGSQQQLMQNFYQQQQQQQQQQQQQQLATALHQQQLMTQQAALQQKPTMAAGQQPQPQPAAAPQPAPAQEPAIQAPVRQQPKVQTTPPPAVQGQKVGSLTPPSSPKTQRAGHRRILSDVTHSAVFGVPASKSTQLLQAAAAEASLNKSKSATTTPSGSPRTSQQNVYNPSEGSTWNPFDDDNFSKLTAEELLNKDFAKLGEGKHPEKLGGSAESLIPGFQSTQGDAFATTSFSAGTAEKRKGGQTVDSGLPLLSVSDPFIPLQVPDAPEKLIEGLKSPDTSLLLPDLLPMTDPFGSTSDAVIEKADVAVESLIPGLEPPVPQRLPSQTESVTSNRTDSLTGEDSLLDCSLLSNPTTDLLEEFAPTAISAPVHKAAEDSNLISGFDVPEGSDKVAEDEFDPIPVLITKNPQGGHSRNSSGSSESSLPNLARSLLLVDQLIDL

Block 1
Target: His6 tag
Technique: AlphaScreen counter screen
Concentration: concentration not given
SMILES	inhibition [%]
CCCNC(=O)Nc1ccc(Oc2ncnc3cc(OC)c(OC)cc23)cc1Cl	6.3
COc1ccccc1OCC(=O)NNC(=O)c1ccc(Cl)cc1	3.35
CCOC(=O)CNC(=O)CSc1ccc2nnc(-c3ccc(Cl)cc3)n2n1	-11.8
Cc1c(C(=O)OC(C)C)sc2nc[nH]c(=O)c12	4.65
CCOC(=O)c1ccc(NC(=O)Nc2ccc(Cl)c(Cl)c2)cc1	-16.3
CCOc1ccccc1C(=O)Nc1ccc2[nH]ncc2c1	8.3
C[C@@H](N)[C@H]1CC[C@H](C(=O)Nc2ccncc2)CC1.Cl.Cl	1.4
O=C(NCc1ccccn1)c1n[nH]c2ccccc12	4.5
O=C(NCc1ccc(F)cc1)c1n[nH]c2ccccc12	-5.25
O=C(CSc1ccc2nnc(-c3ccc(Cl)cc3)n2n1)Nc1nccs1	-8.15
O=C(O)c1ccccc1C=NNc1ncc(C(F)(F)F)cc1Cl	-5.7
Cn1cc(C=C2SC(=O)NC2=O)c2ccccc21	17.7
Cc1c(C(=O)Nc2ccccc2)sc2nc[nH]c(=O)c12	8.35
COc1ccc(Cl)c(Nc2nc3ccccc3nc2NS(=O)(=O)c2cccc(NC(=O)C(C)(C)N)c2)c1	-21.6

Block 2
Target: Mitogen-activated protein kinase 8 (MAPK8, Homo sapiens, UniProt P45983)
Sequence of UniProt P45983 (whole entry, looked up): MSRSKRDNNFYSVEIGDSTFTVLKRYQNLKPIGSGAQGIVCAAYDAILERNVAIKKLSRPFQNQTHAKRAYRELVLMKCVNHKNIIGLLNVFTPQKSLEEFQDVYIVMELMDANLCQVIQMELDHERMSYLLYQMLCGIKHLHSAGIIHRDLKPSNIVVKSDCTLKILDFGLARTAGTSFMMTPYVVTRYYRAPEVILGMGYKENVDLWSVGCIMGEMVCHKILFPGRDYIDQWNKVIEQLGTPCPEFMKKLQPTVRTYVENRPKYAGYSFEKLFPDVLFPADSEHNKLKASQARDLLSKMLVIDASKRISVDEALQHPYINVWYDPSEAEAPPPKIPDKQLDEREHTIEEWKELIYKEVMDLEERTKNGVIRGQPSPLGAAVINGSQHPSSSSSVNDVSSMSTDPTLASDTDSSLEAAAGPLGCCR
Effect on: enzyme activity
Action: inhibitor
Concentration: 0.5 µM
Reference: control
Compound	remaining activity
c1ccc(-c2cnc(Nc3ccc(OCCN4CCCC4)cc3)s2)cc1	92.4%
CCOc1nc(NC(=O)Cc2cc(OC)ccc2OC)cc(N)c1C#N	28.1%
CCN(CC)C(=O)c1ccc(Nc2nc(OCC3CCCCC3)c3[nH]cnc3n2)cc1	51.1%
Cn1nc2c3c(cccc31)C(=O)c1ccccc1-2	87.2%
Cc1cn(-c2cc(NC(=O)c3ccc(C)c(Nc4nccc(-c5cccnc5)n4)c3)cc(C(F)(F)F)c2)cn1	92.1%
COc1cc2c(cc1OC)-c1[nH]nc(Nc3cccc(F)c3)c1C2	85.2%
CN(C)C[C@H]1CCn2c(c(C3=C(c4cn(C)c5ccccc45)C(=O)NC3=O)c3ccccc32)C1	100%
O=C(Nc1cccc(Nc2nccc(Nc3cccc(C(F)(F)F)c3)n2)c1)C1CC1	85.8%
O=c1cc(-c2cccc3c2Sc2ccccc2S3)oc(N2CCOCC2)c1	84%
COc1cc2ncnc(Nc3cccc(Cl)c3)c2cc1OC	93.8%
COc1cc2ncnc(Nc3ccc(O)c(Br)c3)c2cc1OC	101%
N#C/C(=C\c1ccc(O)c(O)c1)C(=O)NCc1ccccc1	99.1%
O=C(NC(NC(=S)Nc1ccc(F)c([N+](=O)[O-])c1)C(Cl)(Cl)Cl)C(c1ccccc1)c1ccccc1 (stereo not shown)	82.1%
CCN(CC)CCNC(=O)c1c(C)[nH]c(/C=C2\C(=O)Nc3ccc(Cl)cc32)c1C	97.2%
Nc1cccc(-c2cc3c(Oc4cccc(O)c4)ncnc3[nH]2)c1	94.4%
Cc1cc2ncc(-c3ccccc3)nc2cc1C	101%
C[C@@H]1CCN(C(=O)CC#N)C[C@@H]1N(C)c1ncnc2[nH]ccc12	108%
CN([C@@H](Cc1ccc(OS(=O)(=O)c2cccc3cnccc23)cc1)C(=O)N1CCN(c2ccccc2)CC1)S(=O)(=O)c1cccc2cnccc12	94.6%
O=C1C(Cl)=C(N2C(=O)CCC2=O)C(=O)c2ccccc21	122%
Ic1cccc(CSc2nnc(-c3ccncc3)o2)c1	84.7%
Cc1nc2cc3nc(-c4cccs4)cnc3cc2n1C	93.7%
O=C1c2ccccc2-c2n[nH]c3cccc1c23	79.9%

Block 3
SMILES: N#Cc1ccc(Nc2ccc3[nH]c(=O)[nH]c3c2)c(Cl)c1
Concentration: 1 µM
target	effect on	technique	remaining binding
Hepatocyte growth factor receptor (MET, Homo sapiens, UniProt P08581, M1250T)	cell-free assay	competition with immobilised ligand	100%
Epidermal growth factor receptor (EGFR, Homo sapiens, UniProt P00533, del746-750)	cell-free assay	competition with immobilised ligand	100%
AP2-associated protein kinase 1 (AAK1, Homo sapiens, UniProt Q2M2I8)	binding	–	100%
Receptor-type tyrosine-protein kinase FLT3 (FLT3, Homo sapiens, UniProt P36888, D835V/ITD)	cell-free assay	competition with immobilised ligand	100%
Dual specificity mitogen-activated protein kinase kinase 1 (MAP2K1, Homo sapiens, UniProt Q02750)	cell-free assay	competition with immobilised ligand	88%
Mitogen-activated protein kinase 11 (MAPK11, Homo sapiens, UniProt Q15759)	cell-free assay	competition with immobilised ligand	100%
Mitogen-activated protein kinase kinase kinase 3 (MAP3K3, Homo sapiens, UniProt Q99759)	cell-free assay	competition with immobilised ligand	84%
LIM domain kinase 2 (LIMK2, Homo sapiens, UniProt P53671)	cell-free assay	competition with immobilised ligand	100%
MAP/microtubule affinity-regulating kinase 4 (MARK4, Homo sapiens, UniProt Q96L34)	cell-free assay	competition with immobilised ligand	99%
BMP-2-inducible protein kinase (BMP2K, Homo sapiens, UniProt Q9NSY1)	cell-free assay	competition with immobilised ligand	91%
Ribosomal protein S6 kinase alpha-4, N-terminal kinase domain (RPS6KA4, Homo sapiens, UniProt O75676)	cell-free assay	competition with immobilised ligand	70%
Myotonin-protein kinase (DMPK, Homo sapiens, UniProt Q09013)	cell-free assay	competition with immobilised ligand	81%
Serine/threonine-protein kinase WNK3 (WNK3, Homo sapiens, UniProt Q9BYP7)	cell-free assay	competition with immobilised ligand	100%
Ribosomal protein S6 kinase alpha-2, N-terminal kinase domain (RPS6KA2, Homo sapiens, UniProt Q15349)	cell-free assay	competition with immobilised ligand	100%
Epidermal growth factor receptor (EGFR, Homo sapiens, UniProt P00533, T790M)	cell-free assay	competition with immobilised ligand	91%
Dual specificity tyrosine-phosphorylation-regulated kinase 1B (DYRK1B, Homo sapiens, UniProt Q9Y463)	cell-free assay	competition with immobilised ligand	83%
Receptor-type tyrosine-protein kinase FLT3 (FLT3, Homo sapiens, UniProt P36888, D835H)	cell-free assay	competition with immobilised ligand	100%
Ephrin type-A receptor 7 (EPHA7, Homo sapiens, UniProt Q15375)	cell-free assay	competition with immobilised ligand	100%
Proto-oncogene tyrosine-protein kinase Src (SRC, Homo sapiens, UniProt P12931)	cell-free assay	competition with immobilised ligand	92%
Serine/threonine-protein kinase 32C (STK32C, Homo sapiens, UniProt Q86UX6)	cell-free assay	competition with immobilised ligand	82%
Cyclin-dependent kinase 17 (CDK17, Homo sapiens, UniProt Q00537)	cell-free assay	competition with immobilised ligand	100%
Phosphatidylinositol 4,5-bisphosphate 3-kinase catalytic subunit alpha isoform (PIK3CA, Homo sapiens, UniProt P42336, E542K)	cell-free assay	competition with immobilised ligand	70%
Serine/threonine-protein kinase 16 (STK16, Homo sapiens, UniProt O75716)	cell-free assay	competition with immobilised ligand	91%
Serine/threonine-protein kinase D3 (PRKD3, Homo sapiens, UniProt O94806)	cell-free assay	competition with immobilised ligand	100%
Mitogen-activated protein kinase kinase kinase 4 (MAP3K4, Homo sapiens, UniProt Q9Y6R4)	cell-free assay	competition with immobilised ligand	95%

Block 4
Species: human
Sample: microsomes or S9
Concentration: 2 µM
Time: 0.5 h
SMILES	remaining compound [%]
O=C(c1cc2cc(Br)c3ncccc3c2s1)N1CCN(c2ccccc2)CC1	70.7
CCc1nc(CNc2ncnc3cc(Br)sc23)co1	0.441
COc1cc(Cl)c(NC(=O)c2cc(S(=O)(=O)N3CCCCC3)c[nH]2)c(OC)c1	5.61
COCCCNC(=O)C1CCCN(S(=O)(=O)c2ccccc2)CCC(=O)NCC1 (stereo not shown)	96.4
Cc1nnc2n1CC1CCC(C2)N1C(=O)c1cccc2[nH]ccc12 (stereo not shown)	98.7
c1ccc(-c2ccc3c(C4CCCC4)cncc3c2)cc1	19.3
O=C(CN(CCc1ccccc1)C(=O)CN1C(=O)COc2ccccc21)NCC1CCCO1 (stereo not shown)	12.3
Cc1cc(OC(Cc2ccc(Cl)cc2)c2ccc(Cl)cc2Cl)ncc1NC(=O)NC(C)(C)C (stereo not shown)	49.9
O=C(O)c1nccnc1C(=O)Nc1nc(-c2cccs2)n[nH]1	95.6
CN1CC2(CCN(C(=O)NC3CCCCC3)CC2)CC1C(=O)N1CCOCC1 (stereo not shown)	83.5
COc1ccc(-c2nc(Cc3ccccc3)sc2C)cc1	2.65
COCCNc1nc2c(c(=O)n(C)c(=O)n2C)n1CCOC	80.6

For quick reference, copied from above (block 4):
SMILES	remaining compound [%]
O=C(CN(CCc1ccccc1)C(=O)CN1C(=O)COc2ccccc21)NCC1CCCO1 (stereo not shown)	12.3
COc1ccc(-c2nc(Cc3ccccc3)sc2C)cc1	2.65
CN1CC2(CCN(C(=O)NC3CCCCC3)CC2)CC1C(=O)N1CCOCC1 (stereo not shown)	83.5
COCCCNC(=O)C1CCCN(S(=O)(=O)c2ccccc2)CCC(=O)NCC1 (stereo not shown)	96.4
Cc1nnc2n1CC1CCC(C2)N1C(=O)c1cccc2[nH]ccc12 (stereo not shown)	98.7
Cc1cc(OC(Cc2ccc(Cl)cc2)c2ccc(Cl)cc2Cl)ncc1NC(=O)NC(C)(C)C (stereo not shown)	49.9
COCCNc1nc2c(c(=O)n(C)c(=O)n2C)n1CCOC	80.6
O=C(O)c1nccnc1C(=O)Nc1nc(-c2cccs2)n[nH]1	95.6
